Measured values gathered from unrelated publications.
Every numbered part comes from another study and shows a few of its results, in no order.

Set 1 — method: RNA Bind-n-Seq; molecule type: RNA; sample: in vitro; concentration: 365 nM; relative to: no-protein control; reading: higher = stronger binding; quantity: RBNS enrichment (R)
Target: RNA binding protein fox-1 homolog 2, RRM domain, GST-SBP tag (RBFOX2, Homo sapiens, UniProt O43251-10, residues 100-194)
Setting: natural RNA segment, single round, ends assumed
Target sequence (chain): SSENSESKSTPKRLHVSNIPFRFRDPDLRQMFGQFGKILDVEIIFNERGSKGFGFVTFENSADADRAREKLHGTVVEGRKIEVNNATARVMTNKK
Oligonucleotide = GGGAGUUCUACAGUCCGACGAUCUACCCAACAACCCUGUGUAACAACUAAAGUAGAAUUAUCUCUCAUUUGUUGUUGUUUUUCCUCAAAAUUACCAAACAAAGCAAAAAAUACCCUUGUUUUUUAUAGUUGAGUGGAAUUCUCGGGUGCCAA; result = 0.31
Oligonucleotide = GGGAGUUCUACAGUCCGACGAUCUUAAUCCUCACAAUAACGAAGUAUGUACUACUAUAAUUGCCAGUUUACAGACGAGAAAACUAAGGCACAAAGUUUAACUUGCCCCAAGCGACAGAGUGGAUAAGUAAAAGUGGAAUUCUCGGGUGCCAA; result = 0.438
Oligonucleotide = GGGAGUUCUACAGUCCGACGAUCGGUAAUGUGGGAUAGUAAUCUCAGUGAAAAGCAAACAGCGCAGGGUCUUGGAAGGGUGGUCUUUAUACAGGUUUUACUGUAAUGGUAAGGAUCGACUCGAGACAGUAUUAUGGAAUUCUCGGGUGCCAA; result = 0.589
Oligonucleotide = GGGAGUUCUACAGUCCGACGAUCACACCAACUAGAUUAUUAUCAGGUACAGAAUCCUGUCCUGAACCUGGGCAAGGCUGGAGGUACUGUAGAGAAUCCAGCUUGGGCCACUGCUUCCAUGUAGAGAAGUGGGAUGGAAUUCUCGGGUGCCAA; result = 0.995
Oligonucleotide = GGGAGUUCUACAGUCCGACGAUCUUGCAACCUAUUUAAUUUUUUUUAAAUGCCUAACUUCUGAGGUGCAUAAGCCCGUGGUUUGUGUACUGGAACUAAAGCGGAACUCACUGAUUCAUAUUGGAUCCCCAGGUUGGAAUUCUCGGGUGCCAA; result = 0.277
Oligonucleotide = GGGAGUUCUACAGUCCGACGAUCAAAGAACAAAAUAACCCGACCUUUAUUGCUGGGAGCUGGCUUCUGUCCCUUUCUUCCCCCCCCCACGAGUCUUGCCCUUGACUUCUGCUCUGGAUUCACUCUUCCCUGUCUGGAAUUCUCGGGUGCCAA; result = 0.906
Oligonucleotide = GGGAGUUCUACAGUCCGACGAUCUAGAAUUUUAGUUUAGGGAAAACUGGUUUGAUUUCUAGCUUUAUUACUAUUAGGUAUGUAAGCUUGGGCAAAUCGCUUAACCUUCAGGUCUAGCUUUCUCACAGAAUGAGUGGAAUUCUCGGGUGCCAA; result = 0.399
Oligonucleotide = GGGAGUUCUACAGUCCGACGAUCAUACAUUUCCAGGCGUGCCUGUGUCCUGUAGCUUUUUAAAAGGAAACCCAGUCAUCCCACUAUGAAUCUGGCAUCUUCUUAUGCUUCUAGUGUUUUGGCCAUACAUCAACUGGAAUUCUCGGGUGCCAA; result = 0.417

Set 2 — method: EMSA with sequencing; molecule type: double-stranded DNA, one strand shown; sample: in vitro; concentration: 10 and 20 nM; relative to: negative control set to 0; reading: higher = stronger binding; quantity: normalised bound fraction
Target: Hepatocyte nuclear factor 3-alpha (Foxa1, Mus musculus, UniProt P35582, residues 1-468, full length assumed)
Setting: whole designed probe, mean of two concentrations, ends assumed
Residues (chain): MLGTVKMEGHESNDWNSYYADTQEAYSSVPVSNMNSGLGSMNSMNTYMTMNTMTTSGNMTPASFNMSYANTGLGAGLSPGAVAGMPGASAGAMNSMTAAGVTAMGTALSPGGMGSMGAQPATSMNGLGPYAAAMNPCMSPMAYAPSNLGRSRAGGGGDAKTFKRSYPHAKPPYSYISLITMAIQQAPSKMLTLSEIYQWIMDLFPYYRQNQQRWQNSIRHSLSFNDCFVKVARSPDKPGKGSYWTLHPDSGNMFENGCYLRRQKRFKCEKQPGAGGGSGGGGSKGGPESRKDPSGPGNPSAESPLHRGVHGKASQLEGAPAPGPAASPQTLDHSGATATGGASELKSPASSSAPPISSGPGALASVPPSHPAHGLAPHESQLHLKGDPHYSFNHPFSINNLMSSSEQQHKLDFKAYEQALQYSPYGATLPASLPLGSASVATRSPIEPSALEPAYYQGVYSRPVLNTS
Oligonucleotide = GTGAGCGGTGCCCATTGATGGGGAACAAATGTAAAACTGCTGAAAAGATAAGAAGAAATGAATAAATCTATAATTAAGACGGAAATCTTTAATAGGCCATAGGCCTCAGGAGTCCTCAAAGTAATCTAAAAATGCACAAGCATGCTTATCTTAAAGGATTAAATAGGTATTTTTAAAATATTGATTTAATACACATGTAGAACTATTAAGTAACAAAATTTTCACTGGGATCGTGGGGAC; result = 0.0528 ratio
Oligonucleotide = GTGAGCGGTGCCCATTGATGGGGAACTGTTTTTAAATGGAGTTTAAAATAAACTGTTAAGAGCTCTGTTAAACTCCGGGCTTAGAGTATATTCTATTTTGGGATATTATTACTCAGTATGTAATCTAGCTGTACCAAGATAAACTGTACAAGATTTCATAATTCCTTGCTGCTCAAGAATAGCAGCTGGTTGCTGCAAAAATTTCAGTTTCCCCCCTATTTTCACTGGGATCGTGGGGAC; result = -0.0276 ratio
Oligonucleotide = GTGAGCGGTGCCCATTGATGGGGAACTCCTTTATCCCAACAAGATTATACAGACAAAACCAGGTTAAAATCGACACAAGGTCAACTTGAAATGGGGAAAGAGGAAGGTGACGTCACAAAATAATCTTGAAGTCTTGTGTACAAGCATCTGCAGAAGAGTTCAGCCTCACCACTTGGGTAATGCTGTTGGAATGTGGTCTGGGTTCACTGTATTTGAATGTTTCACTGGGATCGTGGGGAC; result = -0.00369 ratio
Oligonucleotide = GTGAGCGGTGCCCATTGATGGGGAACGCAGTTCTGTGGTAGTGGGCATCAGTAAAGCTCTTCTCCAGGGCTAGGCTTCTCCTTATTTCTAGAGTGTCAGGGAAAAGGACTTCTTCAAAGTAAACAAGAAGTGCAATATTCACAAAGGACACATACATTCTCAGTGCTGTATTTGGCTGCAACTTCAGGGAGGTCAGATGGTCGTGCAGTTTACCACTGGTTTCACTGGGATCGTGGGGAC; result = 0.414 ratio
Oligonucleotide = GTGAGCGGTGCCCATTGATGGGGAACATCTTCCCCCTCTTCCTTGCCCCACCAGCTCACCTACGGGGGTTATTTGCAGATAGGAAAATAAATAAAGCCGGCATTCGTTAACGCAGTTCTGGCGCAAACTGCTGTTTGCTCTGGATCTAACATGGTCCTTTGGCGAGGCGTGGCTCCGGGAGAGCAAAGCACCGTGTCAGGGCCATGATCCGGGGTGGCCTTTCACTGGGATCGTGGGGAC; result = 0.35 ratio

Set 3 — method: RNA Bind-n-Seq; molecule type: RNA; sample: in vitro; concentration: 200 nM; setting: whole 134-nt RNA, ends assumed; together with: 150 mM LiCl; relative to: input library; reading: higher = stronger binding; quantity: log2 enrichment; library: 7-deaza-guanosine replaces G
Target: Fragile X messenger ribonucleoprotein 1, C-terminal low-complexity region (Fmr1, Mus musculus, UniProt P35922)
Oligonucleotide = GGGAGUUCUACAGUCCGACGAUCAAGUCCUGUGCUACACAUCGUAUGUACCGAAUCGGGUUUUGGGUUUUGGUUUUGGGAAAGUAUUAUGUUACGCCGUUCGGAUCUGCACUUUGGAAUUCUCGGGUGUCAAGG; result = -1.85
Oligonucleotide = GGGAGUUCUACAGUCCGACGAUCUGGGAGGUGGAUUUUGUUUAUUUUUUUAGCUCAUUUCCAGGGGUGGGAAUUUUUUUUUAAUAUGUGUCAUGAAUAAAGUUGUUUUGGAAAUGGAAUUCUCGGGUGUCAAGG; result = 0.0228
Oligonucleotide = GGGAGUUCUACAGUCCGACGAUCUGGCCCUGGUGGCAUGCGGGGAGGAAGAGGUGGCCUCAUGGAUCGUGGUGGUCCCGGUGGAAUGUUCAGAGGUGGCCGUGGUUGAGACAGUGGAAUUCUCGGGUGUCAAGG; result = -0.938
Oligonucleotide = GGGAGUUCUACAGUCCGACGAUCGCAGGAAGUAAAAACAAAUGGAAAUGCUUCGGAUAGUGGCAGGGGUGGGGGUUGCUAAGGAACGGGUGGGAUGGGAGUGGGUAAAGAGUUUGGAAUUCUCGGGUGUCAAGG; result = 1.58
Oligonucleotide = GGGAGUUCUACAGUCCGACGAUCUAACUUUAGAGGAGGAUCUGAUGGAUAUGGCAGUGGACGUGGAUUUGGGGAUGGCUUUAAUGGGUAUGGAGGAGGACCUGGAGGUGGCAAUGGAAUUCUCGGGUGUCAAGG; result = 0.146
Oligonucleotide = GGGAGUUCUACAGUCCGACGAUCCAAGUCCUGUGCUACACAUCGUAUGUACCGAAUCGGGUUUGGGAAAAAGGGAGGGAAAGUAUUAUGUUACGCCGUUCGGAUCUGCACUUCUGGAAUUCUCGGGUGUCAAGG; result = -0.187
Oligonucleotide = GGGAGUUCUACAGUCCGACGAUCUGGCCCUGGUGCCAUGCGGGGAGGAAGAGGUGGCCUCAUGGAUCGUGGUGGUCCCGGUGGAAUGUUCAGAGGUGGCCGUGGUGGAGACAGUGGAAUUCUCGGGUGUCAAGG; result = -0.802
Oligonucleotide = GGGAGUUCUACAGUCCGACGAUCAGUCCUGUGCUACACAUCGUAUGUACCGAAUCGGAAAAAAAGGAAAAAGGAAAAAGGAAAGUAUUAUGUUACGCCGUUCGGAUCUGCACUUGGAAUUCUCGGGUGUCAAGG; result = -1.99

Set 4 — method: RNA Bind-n-Seq; molecule type: RNA; sample: in vitro; concentration: not given; relative to: input RNA pool; reading: higher = stronger binding; quantity: bound/input enrichment
Target: RING finger protein unkempt homolog, zinc fingers 1-6, GST-SBP tag (UNK, Homo sapiens, UniProt Q9C0B0, residues 30-357)
Setting: RNA with constant flanks, human-mouse chimeric sites, ends assumed
Residues (chain): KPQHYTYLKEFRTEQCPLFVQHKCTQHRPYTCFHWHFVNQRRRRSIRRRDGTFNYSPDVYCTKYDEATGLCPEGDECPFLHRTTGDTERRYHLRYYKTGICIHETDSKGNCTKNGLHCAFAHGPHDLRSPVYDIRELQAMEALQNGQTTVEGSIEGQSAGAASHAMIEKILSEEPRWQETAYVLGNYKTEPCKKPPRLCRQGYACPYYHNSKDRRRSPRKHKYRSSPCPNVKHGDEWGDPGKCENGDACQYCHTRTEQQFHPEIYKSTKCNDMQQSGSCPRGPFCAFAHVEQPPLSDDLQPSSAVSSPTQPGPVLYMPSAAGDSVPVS
Oligonucleotide = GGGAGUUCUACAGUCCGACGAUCAGAGAAAUGAGAAAGAAUCUUACACAAGAUGAGAUGCAAAGAAUGUCUACUAGAGUCCUUUUGGCGACUCUUUCCAUUCCUAUUACUCCUGAGCGUACUGAUAUUGCUCGACUUUUGGAUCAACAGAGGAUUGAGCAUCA; result = 0.102 ratio
Oligonucleotide = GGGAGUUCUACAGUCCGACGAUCGAAACAUUUAAAUUUAAAGAAGCUGUUGUUCUAGGAAGUACGGACUUUCUAGAAGAUGAUAUAGAGAAAAUUGUAGAAGAACUGGGAAAAGAAUACAAGGGCAACGCCUACCAUCUGAUGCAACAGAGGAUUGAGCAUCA; result = 1.16 ratio
Oligonucleotide = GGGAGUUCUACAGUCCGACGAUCAAAGAGAAUGGAGAUGUAAAGAUUUUACUGAAAAGUGGGAAGGAGAAACCAAAAACAAAUAUAGAAGACUUACAAAUUAAAAAAGUAAAGAAGAAAAAGAAAAAGAAACACAAAGAGAAUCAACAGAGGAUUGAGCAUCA; result = 13.2 ratio
Oligonucleotide = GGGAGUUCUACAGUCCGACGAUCAUAGAUGAAAUUGAUGUGGACCAGGAAGGAAUUGCAGAAAUGAUCCUGGAUGAAAAUGCUAUUGCUCAAGUUCCACGCCCUGGCACAUCUUUGAAGCUCCCUGGCACUAACCAAACAGGACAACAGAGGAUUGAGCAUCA; result = 0.225 ratio
Oligonucleotide = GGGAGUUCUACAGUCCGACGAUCCGCUGGCCCAAGCUGAUGGACUCUGAUGGCCUCCAUCUCUCAGGCACGUGUGCCUUCUCUUAGUCCCUGUUUUCGGGAUGUUAUGAACAGUAUCAUGGUGGUUUGAAAGCACCAGCUUUGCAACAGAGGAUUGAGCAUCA; result = 0.0921 ratio
Oligonucleotide = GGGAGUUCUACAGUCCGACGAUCUGUAGUUUCUUGAUUUAUCAUUUUUCUCUUUUCUUUCUUUCCUUUAGGAAAAGCCUAAAGAUUAGACUGUAAGAAAAACAGAAGCCAUGUUUCGAAGACCUGUGUUAAUUACAGGUAGUCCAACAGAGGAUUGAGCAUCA; result = 0.147 ratio
Oligonucleotide = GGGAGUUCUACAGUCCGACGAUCGCGAACAGGACUACAGAAAUGCUGGUAAUUUCAGUCACUUGCUGAUGACUUCUGAUGACCUAGCAAAUGUUGGCAUUGUUGACUGCUGAGAAGAUACUUCUGAGGACCCACGUCUAAGGUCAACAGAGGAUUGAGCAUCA; result = 0.108 ratio
Oligonucleotide = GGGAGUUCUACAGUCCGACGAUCGCGGCAGAAUCAUGGAGGACAUAAUGCAGCUCCCCAAAGCGCGCGUCAACGCCGGCAUGUUACCACAGUAUAUCGACAAGCCUGUCUGCUUCGUGGGGAAGCUGGAAAAGAUUCAUCCCACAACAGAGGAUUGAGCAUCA; result = 0.138 ratio

Excerpt of the above (set 4):
Oligonucleotide = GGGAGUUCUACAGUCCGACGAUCGCGGCAGAAUCAUGGAGGACAUAAUGCAGCUCCCCAAAGCGCGCGUCAACGCCGGCAUGUUACCACAGUAUAUCGACAAGCCUGUCUGCUUCGUGGGGAAGCUGGAAAAGAUUCAUCCCACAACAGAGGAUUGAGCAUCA; result = 0.138 ratio
Oligonucleotide = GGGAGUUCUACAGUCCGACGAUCGCGAACAGGACUACAGAAAUGCUGGUAAUUUCAGUCACUUGCUGAUGACUUCUGAUGACCUAGCAAAUGUUGGCAUUGUUGACUGCUGAGAAGAUACUUCUGAGGACCCACGUCUAAGGUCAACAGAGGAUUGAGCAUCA; result = 0.108 ratio
